{"data": "Measured values from different studies", "note": "A part holds a random share of what one study measured. Several values in a cell are separate wells, animals, samples, runs or records.", "UniProt P11309, sequence (whole entry, looked up)": "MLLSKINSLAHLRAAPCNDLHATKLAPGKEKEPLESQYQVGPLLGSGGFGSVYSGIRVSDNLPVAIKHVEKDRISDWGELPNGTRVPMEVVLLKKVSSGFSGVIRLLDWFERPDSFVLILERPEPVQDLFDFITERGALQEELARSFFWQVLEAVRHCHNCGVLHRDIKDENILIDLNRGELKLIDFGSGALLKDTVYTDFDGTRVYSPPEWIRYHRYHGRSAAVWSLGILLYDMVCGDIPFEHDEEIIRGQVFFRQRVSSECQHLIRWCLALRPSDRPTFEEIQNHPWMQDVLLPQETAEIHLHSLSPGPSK", "UniProt Q9H3Y6, sequence (whole entry, looked up)": "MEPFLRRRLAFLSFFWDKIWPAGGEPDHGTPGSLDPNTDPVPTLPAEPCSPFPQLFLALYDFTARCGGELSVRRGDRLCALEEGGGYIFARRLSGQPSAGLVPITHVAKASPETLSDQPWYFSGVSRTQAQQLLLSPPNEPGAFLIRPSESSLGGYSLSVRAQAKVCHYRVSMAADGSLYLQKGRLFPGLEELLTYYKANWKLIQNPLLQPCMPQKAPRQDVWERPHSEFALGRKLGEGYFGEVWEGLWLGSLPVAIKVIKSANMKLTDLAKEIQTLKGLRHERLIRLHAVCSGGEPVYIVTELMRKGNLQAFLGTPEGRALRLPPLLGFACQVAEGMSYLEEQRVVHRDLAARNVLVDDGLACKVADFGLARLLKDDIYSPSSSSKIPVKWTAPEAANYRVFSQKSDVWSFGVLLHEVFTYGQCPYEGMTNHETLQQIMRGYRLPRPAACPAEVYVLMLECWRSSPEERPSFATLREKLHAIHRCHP", "UniProt Q13233, sequence (whole entry, looked up)": "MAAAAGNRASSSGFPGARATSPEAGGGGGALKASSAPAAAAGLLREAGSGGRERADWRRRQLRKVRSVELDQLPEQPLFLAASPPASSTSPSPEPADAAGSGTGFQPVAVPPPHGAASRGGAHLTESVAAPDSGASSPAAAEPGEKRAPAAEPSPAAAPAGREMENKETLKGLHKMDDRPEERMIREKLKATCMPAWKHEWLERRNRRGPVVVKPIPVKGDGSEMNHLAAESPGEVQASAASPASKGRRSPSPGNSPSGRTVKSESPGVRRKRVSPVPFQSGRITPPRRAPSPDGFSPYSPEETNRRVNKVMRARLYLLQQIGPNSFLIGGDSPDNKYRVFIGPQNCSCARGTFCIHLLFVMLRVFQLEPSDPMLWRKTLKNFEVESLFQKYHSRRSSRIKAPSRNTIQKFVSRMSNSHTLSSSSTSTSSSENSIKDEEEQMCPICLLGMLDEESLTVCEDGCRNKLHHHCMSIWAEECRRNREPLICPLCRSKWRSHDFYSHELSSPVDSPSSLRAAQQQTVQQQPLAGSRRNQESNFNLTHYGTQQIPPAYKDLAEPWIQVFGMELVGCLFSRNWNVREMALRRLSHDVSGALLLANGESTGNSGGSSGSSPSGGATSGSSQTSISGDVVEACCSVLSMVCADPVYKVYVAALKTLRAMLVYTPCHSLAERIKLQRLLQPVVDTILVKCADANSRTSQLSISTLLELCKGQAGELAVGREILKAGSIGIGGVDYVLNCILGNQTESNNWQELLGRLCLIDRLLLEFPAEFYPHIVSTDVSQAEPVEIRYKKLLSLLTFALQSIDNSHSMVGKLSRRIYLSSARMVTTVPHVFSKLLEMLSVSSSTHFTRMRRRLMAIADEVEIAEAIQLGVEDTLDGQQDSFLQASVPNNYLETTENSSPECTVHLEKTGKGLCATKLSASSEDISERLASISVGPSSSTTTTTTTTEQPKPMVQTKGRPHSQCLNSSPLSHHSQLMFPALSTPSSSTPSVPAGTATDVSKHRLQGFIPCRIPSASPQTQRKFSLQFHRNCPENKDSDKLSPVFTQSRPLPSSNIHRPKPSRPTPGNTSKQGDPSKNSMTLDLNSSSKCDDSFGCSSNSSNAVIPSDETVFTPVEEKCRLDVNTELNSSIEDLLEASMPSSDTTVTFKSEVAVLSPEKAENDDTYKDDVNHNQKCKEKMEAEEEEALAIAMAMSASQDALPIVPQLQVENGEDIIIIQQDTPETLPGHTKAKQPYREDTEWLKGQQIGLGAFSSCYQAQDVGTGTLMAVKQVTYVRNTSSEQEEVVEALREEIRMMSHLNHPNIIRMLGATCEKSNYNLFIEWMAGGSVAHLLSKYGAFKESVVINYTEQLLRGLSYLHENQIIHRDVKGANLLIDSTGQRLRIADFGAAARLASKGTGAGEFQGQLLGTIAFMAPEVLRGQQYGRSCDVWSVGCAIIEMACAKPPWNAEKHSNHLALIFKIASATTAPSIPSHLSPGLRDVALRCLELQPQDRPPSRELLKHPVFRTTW", "UniProt P10721, sequence (whole entry, unmodified, looked up)": "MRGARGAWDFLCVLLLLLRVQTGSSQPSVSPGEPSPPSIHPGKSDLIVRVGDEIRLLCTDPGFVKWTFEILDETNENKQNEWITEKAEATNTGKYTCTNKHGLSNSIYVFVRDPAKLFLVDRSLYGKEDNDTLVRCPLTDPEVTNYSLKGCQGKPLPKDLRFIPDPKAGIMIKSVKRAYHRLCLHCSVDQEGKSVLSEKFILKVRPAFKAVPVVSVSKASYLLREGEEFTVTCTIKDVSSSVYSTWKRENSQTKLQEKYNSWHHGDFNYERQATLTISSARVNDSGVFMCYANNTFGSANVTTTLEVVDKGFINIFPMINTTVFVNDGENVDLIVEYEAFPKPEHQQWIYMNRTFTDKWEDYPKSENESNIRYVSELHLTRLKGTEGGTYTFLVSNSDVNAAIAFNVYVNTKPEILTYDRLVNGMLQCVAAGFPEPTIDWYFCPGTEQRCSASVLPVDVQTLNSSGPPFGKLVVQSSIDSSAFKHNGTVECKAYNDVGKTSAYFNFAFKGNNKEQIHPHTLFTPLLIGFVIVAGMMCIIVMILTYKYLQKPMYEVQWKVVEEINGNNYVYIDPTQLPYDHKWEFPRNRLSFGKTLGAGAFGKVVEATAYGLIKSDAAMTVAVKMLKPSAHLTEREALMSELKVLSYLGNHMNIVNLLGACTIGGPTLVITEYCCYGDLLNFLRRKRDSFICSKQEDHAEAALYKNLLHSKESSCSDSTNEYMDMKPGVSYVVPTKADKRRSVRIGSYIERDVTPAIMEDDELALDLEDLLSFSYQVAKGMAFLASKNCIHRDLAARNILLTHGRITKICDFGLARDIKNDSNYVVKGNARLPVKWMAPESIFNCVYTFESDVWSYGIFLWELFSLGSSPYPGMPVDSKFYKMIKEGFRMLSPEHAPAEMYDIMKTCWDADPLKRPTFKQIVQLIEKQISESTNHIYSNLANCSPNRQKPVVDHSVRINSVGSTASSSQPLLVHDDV"}
{"data": "Series 1", "organism": "Sarcocystis neurona", "observed": "parasite growth", "tested at": "10 µM", "time": "96 h", "setting": "second screen", "relative to": "untreated"}
{"SMILES": "CC(=O)OCC(=O)[C@@]1(O)CC[C@H]2[C@@H]3CCC4=CC(=O)CC[C@]4(C)[C@H]3C(=O)C[C@@]21C", "log2 fold change": 0.0272}
{"SMILES": "O=C1c2cccc3c2[C@H](CCC3)CN1[C@@H]1CN2CCC1CC2", "log2 fold change": 0.29}
{"SMILES": "COc1ccnc(C[S+]([O-])c2nc3ccc(OC(F)F)cc3[nH]2)c1OC (stereo not shown)", "log2 fold change": 0.95}
{"SMILES": "COc1cc2c(cc1OC)C(=O)C(CC1CCN(Cc3ccccc3)CC1)C2 (stereo not shown)", "log2 fold change": 0.63}
{"SMILES": "Nc1c2c(nc3c1CCC3)CCCC2", "log2 fold change": 0.23}
{"SMILES": "Nc1nc(Cl)nc2c1ncn2[C@H]1C[C@H](O)[C@@H](CO)O1", "log2 fold change": 0.27}
{"SMILES": "CCCc1nc2c(C)cc(-c3nc4ccccc4n3C)cc2n1Cc1ccc(-c2ccccc2C(=O)O)cc1", "log2 fold change": -0.24}
{"SMILES": "C[C@@H]1C[C@H]2[C@@H]3CCC4=CC(=O)C=C[C@]4(C)[C@@]3(F)[C@@H](O)C[C@]2(C)[C@@]1(O)C(=O)CO", "log2 fold change": 0.27}
{"SMILES": "Nc1nc(O)c2ncn(COC(CO)CO)c2n1", "log2 fold change": 0.27}
{"SMILES": "CC(=O)[C@@]1(O)CC[C@H]2[C@@H]3C[C@H](C)C4=CC(=O)C=C[C@]4(C)[C@@]3(F)[C@@H](O)C[C@@]21C", "log2 fold change": 0.61}
{"SMILES": "NS(=O)(=O)Cc1noc2ccccc12", "log2 fold change": 0.13}
{"SMILES": "CC[C@H]1OC(=O)[C@H](C)[C@@H](O[C@H]2C[C@@](C)(OC)[C@@H](O)[C@H](C)O2)[C@H](C)[C@@H](O[C@@H]2O[C@H](C)C[C@H](N(C)C)[C@H]2O)[C@](C)(O)C[C@@H](C)CN(C)[C@H](C)[C@@H](O)[C@]1(C)O", "log2 fold change": 0.08}
{"data": "Series 2", "target": "Calcium/calmodulin-dependent protein kinase type II subunit alpha (CAMK2A, Homo sapiens, UniProt Q9UQM7)", "observed": "enzyme activity", "mode": "inhibitor", "tested at": "10 µM", "UniProt Q9UQM7, sequence (whole entry, looked up)": "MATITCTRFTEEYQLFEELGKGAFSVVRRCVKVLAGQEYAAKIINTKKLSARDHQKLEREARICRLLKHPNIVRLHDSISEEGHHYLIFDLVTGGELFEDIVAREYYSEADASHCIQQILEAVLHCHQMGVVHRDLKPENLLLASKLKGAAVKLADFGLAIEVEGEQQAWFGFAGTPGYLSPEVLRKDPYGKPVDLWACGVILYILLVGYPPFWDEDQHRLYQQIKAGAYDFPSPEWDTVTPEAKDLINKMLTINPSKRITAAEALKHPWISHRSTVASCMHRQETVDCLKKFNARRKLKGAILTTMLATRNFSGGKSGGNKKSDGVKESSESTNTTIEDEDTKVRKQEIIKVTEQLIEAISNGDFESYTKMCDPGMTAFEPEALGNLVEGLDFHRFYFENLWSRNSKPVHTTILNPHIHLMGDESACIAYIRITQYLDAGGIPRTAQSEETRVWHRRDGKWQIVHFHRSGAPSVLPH"}
{"SMILES": "C/C=C/C(=O)C1=C(C)CCCC1(C)C", "inhibition": "5%"}
{"SMILES": "O=c1cc(-c2ccc(O)cc2)oc2c([C@@H]3O[C@H](CO)[C@@H](O)[C@H](O)[C@H]3O)c(O)c([C@@H]3OC[C@H](O)[C@H](O)[C@H]3O)c(O)c12", "inhibition": "-19%"}
{"SMILES": "O=C1N[C@@H](Cc2cnc[nH]2)C(=O)N2CCC[C@@H]12", "inhibition": "-21%"}
{"SMILES": "C=C[C@H]1[C@H](O[C@@H]2O[C@H](CO)[C@@H](O)[C@H](O)[C@H]2O)OC=C2C(=O)OCC[C@]21O", "inhibition": "-20%"}
{"SMILES": "COc1cc(/C=C/C(=O)O)cc(O)c1O", "inhibition": "-3%"}
{"SMILES": "O=C1OCc2ccccc21", "inhibition": "-12%"}
{"SMILES": "CCCCCCCCCCCCCCCC(=O)OC1CCCn2c1nc(C)c(CCN1CCC(c3noc4cc(F)ccc34)CC1)c2=O (stereo not shown)", "inhibition": "-4%"}
{"SMILES": "C=CC[C@@H]1/C=C(\\C)C[C@H](C)C[C@H](OC)[C@H]2O[C@@](O)(C(=O)C(=O)N3CCCC[C@H]3C(=O)O[C@H](/C(C)=C/[C@@H]3CC[C@@H](O)[C@H](OC)C3)[C@H](C)[C@@H](O)CC1=O)[C@H](C)C[C@@H]2OC", "inhibition": "5%"}
{"SMILES": "Nc1nc2c(ncn2[C@H]2C[C@H](O)[C@@H](CO)O2)c(=O)[nH]1", "inhibition": "0.13% and 0.39%"}
{"data": "Series 3", "target": "Diamine acetyltransferase 1 (Homo sapiens, UniProt P21673)", "mode": "inhibitor", "tested at": "10 µM", "relative to": "control", "Residues (P21673 1-171)": "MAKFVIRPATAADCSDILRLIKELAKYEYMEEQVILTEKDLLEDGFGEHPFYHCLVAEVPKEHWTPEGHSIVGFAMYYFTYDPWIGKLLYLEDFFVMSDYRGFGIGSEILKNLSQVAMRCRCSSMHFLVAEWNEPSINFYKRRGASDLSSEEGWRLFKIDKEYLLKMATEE"}
{"SMILES": "NC(=O)NC1NC(=O)NC1=O (stereo not shown)", "remaining activity [%]": 97.2}
{"SMILES": "Cc1c[nH]c(=O)[nH]c1=O", "remaining activity [%]": 98.1}
{"SMILES": "C=C(C)[C@@H]1CC[C@@H](C)C[C@H]1O", "remaining activity [%]": 95.7}
{"SMILES": "N[C@H](Cc1ccccc1)C(=O)O", "remaining activity [%]": 109}
{"SMILES": "CC(=O)O[C@H]1[C@H](O[C@H]2CC[C@]34C[C@]35CC[C@]3(C)[C@@H]([C@@]6(C)CC[C@@H](C(C)(C)O)O6)[C@@H](O)C[C@@]3(C)[C@@H]5C[C@H](O[C@@H]3O[C@H](CO)[C@@H](O)[C@H](O)[C@H]3O)[C@H]4C2(C)C)OC[C@@H](O)[C@@H]1O", "remaining activity [%]": 99.8}
{"SMILES": "CCCCCCCCCCCCCCC", "remaining activity [%]": 96.7}
{"SMILES": "COc1cc(CCC(=O)CC(=O)CCc2ccc(O)c(OC)c2)ccc1O", "remaining activity [%]": 103}
{"SMILES": "CCCCCCCCCCCCCC(C)=O", "remaining activity [%]": 94.4}
{"SMILES": "O=c1c(O)c(-c2cc(O)c(O)c(O)c2)oc2cc(O)cc(O)c12", "remaining activity [%]": 80.9}
{"SMILES": "C=C(CC[C@@H](C(=O)O)[C@H]1CC[C@@]2(C)C3=C(CC[C@]12C)[C@@]1(C)CC[C@H](O)C(C)(C)[C@@H]1CC3)C(C)C", "remaining activity [%]": 110}
{"SMILES": "C=CCc1ccc(OC)c(OC)c1", "remaining activity [%]": 102}
{"SMILES": "COc1cc(/C=C/C(=O)N2CCC=CC2=O)cc(OC)c1OC", "remaining activity [%]": 111}
{"data": "Series 4", "SMILES": "COc1ccc2c(c1)O[C@H](c1ccc(OC)c(OC)c1)C[C@@H]2NC(=O)C1(c2ccc3c(c2)OC(F)(F)O3)CC1", "method": "competition with immobilised ligand", "tested at": "1 µM"}
{"target": "Tyrosine-protein kinase ABL1, non-phosphorylated (ABL1, Homo sapiens, UniProt P00519, Q252H)", "assay": "cell-free assay", "remaining binding": "100%"}
{"target": "KDR (Homo sapiens, UniProt P35968)", "assay": "cell-free assay", "remaining binding": "88%"}
{"target": "MAPK10 (Homo sapiens, UniProt P53779)", "assay": "cell-free assay", "remaining binding": "100%"}
{"target": "KIT (Homo sapiens, UniProt P10721, T670I/V559D)", "assay": "cell-free assay", "remaining binding": "100%"}
{"target": "CSK (Homo sapiens, UniProt P41240)", "assay": "cell-free assay", "remaining binding": "100%"}
{"target": "RET (Homo sapiens, UniProt P07949, V804L)", "assay": "cell-free assay", "remaining binding": "87%"}
{"target": "GRK7 (Homo sapiens, UniProt Q8WTQ7)", "assay": "cell-free assay", "remaining binding": "100%"}
{"target": "MAP3K1 (Homo sapiens, UniProt Q13233)", "assay": "cell-free assay", "remaining binding": "100%"}
{"target": "WEE2 (Homo sapiens, UniProt P0C1S8)", "assay": "cell-free assay", "remaining binding": "100%"}
{"target": "PRKACA (Homo sapiens, UniProt P17612)", "assay": "cell-free assay", "remaining binding": "100%"}
{"target": "STK33 (Homo sapiens, UniProt Q9BYT3)", "assay": "cell-free assay", "remaining binding": "61%"}
{"target": "CDKL1 (Homo sapiens, UniProt Q00532)", "assay": "cell-free assay", "remaining binding": "83%"}
{"target": "TXK (Homo sapiens, UniProt P42681)", "assay": "binding", "remaining binding": "95%"}
{"target": "TLK1 (Homo sapiens, UniProt Q9UKI8)", "assay": "cell-free assay", "remaining binding": "100%"}
{"target": "CDK16 (Homo sapiens, UniProt Q00536)", "assay": "cell-free assay", "remaining binding": "100%"}
{"target": "SRMS (Homo sapiens, UniProt Q9H3Y6)", "assay": "cell-free assay", "remaining binding": "87%"}
{"target": "ERBB2 (Homo sapiens, UniProt P04626)", "assay": "cell-free assay", "remaining binding": "100%"}
{"target": "IRAK4 (Homo sapiens, UniProt Q9NWZ3)", "assay": "cell-free assay", "remaining binding": "100%"}
{"target": "Tyrosine-protein kinase ABL1, phosphorylated (ABL1, Homo sapiens, UniProt P00519, F317L)", "assay": "cell-free assay", "remaining binding": "100%"}
{"target": "PIM1 (Homo sapiens, UniProt P11309)", "assay": "cell-free assay", "remaining binding": "100%"}
{"target": "STK32C (Homo sapiens, UniProt Q86UX6)", "assay": "cell-free assay", "remaining binding": "84%"}
{"target": "PIK3CA (Homo sapiens, UniProt P42336, E545A)", "assay": "cell-free assay", "remaining binding": "100%"}
